# Measurements from different studies.
# ± marks the error that the study gave.
# Cell line: MCF-10A
SMILES,observed,method,time,IC50
NS(=O)(=O)c1ccc(/N=N/c2ccc(O)c(/C=N/c3ccccn3)c2)cc1,cell growth or viability,MTT,72 h,48.7 µM
CCC(C(=O)O)C1CCC(C)C(C(C)C(O)C(C)C(=O)C(CC)C2OC3(C=CC(NCc4cn(COC(=O)C(C)(C)C)nn4)C4(CCC(C)(C5CCC(O)(CC)C(C)O5)O4)O3)C(C)CC2C)O1 (centres unmarked),cell growth or viability,resazurin,72 h,6.06 µM
O=[C]=[Re-2]1(=[C]=O)(=[C]=O)([O]C(=O)c2ccccc2Nc2cccc(C(F)(F)F)c2)[n+]2ccc(-c3ccccc3)c3ccc4c(-c5ccccc5)cc[n+]1c4c32,cell growth or viability,resazurin,72 h,3.68 µM
Clc1ccc2ccc3[n+](c2c1)[Ir-3]12([c]4ccccc4-3)([c]3ccccc3-c3ccc4ccc(Cl)cc4[n+]31)[n+]1ccccc1-c1cccc[n+]12.F[P-](F)(F)(F)(F)F,cell growth,MTT,72 h,0.72 ± 0.02 µM
O=C(c1ccc2ccccc2c1)c1cn(-c2ccccc2)nc1C1=Nn2c(Cc3nnc4n3N=C(c3nn(-c5ccccc5)cc3C(=O)c3ccc5ccccc5c3)CS4)nnc2SC1,cell growth or viability,MTT,48 h,≥ 50 µM
Cc1ccc(C(C)C)cc1.O=C(N=P(c1ccccc1)(c1ccccc1)c1ccccc1)c1ccccn1.[Cl-].[Cl][Ru+],cell growth or viability,resazurin,24 h,2.66 µM
CCN(CC)c1ccc2c(c1)[O][Pd]([CH2]C#N)[N](C1CCCCC1)c1ncccc1N=C2,cell growth or viability,MTT,48 h,> 100 µM
CCCC/C=N/NC(=O)c1cc2cc(Nc3nccc(-c4cccnc4)n3)ccc2[nH]1,cell growth or viability,MTT,48 h,> 50 µM
Cc1cc(=O)[nH]c2c(/N=N/c3ccccc3)c(O)c(/N=N/c3ccccc3)cc12,cell growth or viability,MTT,,101 µg/mL
COC(=O)c1ccc(-n2nc(C(F)(F)F)cc2-c2cc(OC)c(OC)c(OC)c2)cc1,cell growth or viability,SRB,,23.2 µM
NS(=O)(=O)c1ccc(/N=N/c2ccc(O)c(/C=N/CCc3c[nH]c4ccccc34)c2)cc1,cell growth or viability,MTT,48 h,10.5 µM
O=[C]=[Re-2]1(=[C]=O)(=[C]=O)([O]S(=O)(=O)c2cccc3ccccc23)[n+]2ccc(-c3ccccc3)c3ccc4c(-c5ccccc5)cc[n+]1c4c32,cell growth or viability,resazurin,72 h,3.63 µM
CCC(C(=O)O)C1CCC(C)C(C(C)C(O)C(C)C(=O)C(CC)C2OC3(C=CC(NCc4cn(CCCO)nn4)C4(CCC(C)(C5CCC(O)(CC)C(C)O5)O4)O3)C(C)CC2C)O1 (centres unmarked),cell growth or viability,resazurin,72 h,> 12.5 µM
Cc1cc(-c2ccccc2)c2ccc3c(-c4ccccc4)cc(C)[n+]4c3c2[n+]1[Re-2]4(=[C]=O)(=[C]=O)(=[C]=O)[O]C(=O)c1cccnc1,cell growth or viability,resazurin,72 h,6.38 µM
Cc1ccc(/C=N/NC(=O)c2cc3cc(Nc4nccc(-c5cccnc5)n4)ccc3[nH]2)cc1,cell growth or viability,MTT,48 h,> 50 µM
NS(=O)(=O)c1ccc(/N=N/c2ccc(O)c(C=O)c2)cc1,cell growth or viability,MTT,48 h,18.7 µM
N#C[CH2][Pd]1[O]c2ccccc2C=Nc2cccnc2[N]1Cc1ccccc1,cell growth or viability,MTT,48 h,> 100 µM
Cc1cc(-c2ccccc2)c2ccc3c(-c4ccccc4)cc(C)[n+]4c3c2[n+]1[Re-2]4(=[C]=O)(=[C]=O)(=[C]=O)[O]S(=O)(=O)c1cccc2ccccc12,cell growth or viability,resazurin,72 h,2.51 µM
CCC(C(=O)O)C1CCC(C)C(C(C)C(O)C(C)C(=O)C(CC)C2OC3(C=CC(NCc4cn(CSc5ccccc5)nn4)C4(CCC(C)(C5CCC(O)(CC)C(C)O5)O4)O3)C(C)CC2C)O1 (centres unmarked),cell growth or viability,resazurin,72 h,2.51 µM
Cc1cc(-c2ccccc2)c2ccc3c(-c4ccccc4)cc(C)[n+]4c3c2[n+]1[Re-2]4(=[C]=O)(=[C]=O)(=[C]=O)[O]C(=O)c1ccccn1,cell growth or viability,resazurin,72 h,6.31 µM
O=C1CCCC2=C1C(c1cccs1)c1c([nH]c(=S)[nH]c1=S)O2 (centres unmarked),cell growth or viability,MTT,72 h,57 µM
NS(=O)(=O)c1ccc(/N=N/c2ccc(O)c(/C=N/c3cc([N+](=O)[O-])ccc3O)c2)cc1,cell growth or viability,MTT,72 h,4.42 µM
CC(=O)[O][Ag]=[c]1n(C)ccn1CC(O)c1ccccc1 (centres unmarked),cell growth or viability,MTT,72 h,> 200 µM
C#CCNC(=O)C(CC)C1CCC(C)C(C(C)C(O)C(C)C(=O)C(CC)C2OC3(C=CC(O)C4(CCC(C)(C5CCC(O)(CC)C(C)O5)O4)O3)C(C)CC2C)O1 (centres unmarked),viability,MTT,96 h,> 10 µM
C=C1C(=O)OC2C1CCC(=C)C1CC(OC(C)=O)C(=C)C12 (centres unmarked),cell growth or viability,MTT,48 h,29.6 µM
NS(=O)(=O)c1ccc(/N=N/c2ccc(O)c(/C=N/c3cccc(O)c3)c2)cc1,cell growth or viability,MTT,72 h,9.63 µM
O=C(c1ccc2ccccc2c1)c1cn(-c2ccccc2)nc1C1=Nn2c(CCCc3nnc4n3N=C(c3nn(-c5ccccc5)cc3C(=O)c3ccc5ccccc5c3)CS4)nnc2SC1,cell growth or viability,MTT,48 h,48.4 µM
CCN(CC)c1ccc2c(c1)[O][Pd]([CH2]C#N)[N](Cc1ccccc1)c1ncccc1N=C2,cell growth or viability,MTT,48 h,> 100 µM
NS(=O)(=O)c1ccc(/N=N/c2ccc(O)c(/C=N/c3cc(Cl)ccc3O)c2)cc1,cell growth or viability,MTT,48 h,12.2 µM
CCC(C(=O)O)C1CCC(C)C(C(C)C(O)C(C)C(=O)C(CC)C2OC3(C=CC(NCc4cn(-c5ccc(C(C)=O)cc5)nn4)C4(CCC(C)(C5CCC(O)(CC)C(C)O5)O4)O3)C(C)CC2C)O1 (centres unmarked),cell growth or viability,resazurin,72 h,2.35 µM
NS(=O)(=O)c1ccc(/N=N/c2ccc(O)c(/C=N/c3nccs3)c2)cc1,cell growth or viability,MTT,48 h,34.7 µM
CC(C)Cc1ccc(C(C)C(=O)[O][Re-2]2(=[C]=O)(=[C]=O)(=[C]=O)[n+]3ccc(-c4ccccc4)c4ccc5c(-c6ccccc6)cc[n+]2c5c43)cc1 (racemic),cell growth or viability,resazurin,72 h,1.47 µM

# Some of these lines once more:
SMILES,observed,method,time,IC50
NS(=O)(=O)c1ccc(/N=N/c2ccc(O)c(/C=N/CCc3c[nH]c4ccccc34)c2)cc1,cell growth or viability,MTT,48 h,10.5 µM
O=[C]=[Re-2]1(=[C]=O)(=[C]=O)([O]S(=O)(=O)c2cccc3ccccc23)[n+]2ccc(-c3ccccc3)c3ccc4c(-c5ccccc5)cc[n+]1c4c32,cell growth or viability,resazurin,72 h,3.63 µM
CCC(C(=O)O)C1CCC(C)C(C(C)C(O)C(C)C(=O)C(CC)C2OC3(C=CC(NCc4cn(CCCO)nn4)C4(CCC(C)(C5CCC(O)(CC)C(C)O5)O4)O3)C(C)CC2C)O1 (centres unmarked),cell growth or viability,resazurin,72 h,> 12.5 µM
Cc1cc(-c2ccccc2)c2ccc3c(-c4ccccc4)cc(C)[n+]4c3c2[n+]1[Re-2]4(=[C]=O)(=[C]=O)(=[C]=O)[O]C(=O)c1cccnc1,cell growth or viability,resazurin,72 h,6.38 µM
